Experimental data pooled from the literature.
Protocols differ between the studies behind these lines.

Molecule = Nc1ncnc2c([C@@H]3N[C@H](CO)[C@@H](O)[C@H]3O)c[nH]c12; tested on = Marburg virus; test = viral replication, antibody staining; test system = HeLa, Musoke; setting = 100 µM, 1 h; endpoint = infected cells; result = 0.4%
Molecule = ELDKYFKNHTSPDVD; tested on = human CD4 T cells; test = AIM; test system = peptide; endpoint = responding donors; result = 7%
Molecule = CC[C@H](C)[C@H](NC(=O)[C@H](CC(C)C)NC(=O)[C@H](Cc1c[nH]c2ccccc12)NC(=O)[C@H](CCC(N)=O)NC(=O)[C@@H](NC(=O)[C@H](Cc1ccccc1)NC(=O)[C@H](C)NC(=O)[C@H](CCCCNC(=O)COCCOCCNC(=O)COCCOCCNC(=O)CC[C@H](NC(=O)CCCCCCCCCCCCCCCCCCC(=O)O)C(=O)O)NC(=O)[C@H](CCC(N)=O)NC(=O)[C@H](C)NC(=O)[C@@H](NC(=O)[C@H](CCCCN)NC(=O)[C@H](CC(=O)O)NC(=O)[C@H](CC(C)C)NC(=O)C(C)(C)NC(=O)[C@@H](NC(=O)[C@H](CO)NC(=O)[C@H](Cc1ccc(O)cc1)NC(=O)[C@H](CC(=O)O)NC(=O)[C@H](CO)NC(=O)[C@@H](NC(=O)[C@H](Cc1ccccc1)NC(=O)[C@@H](NC(=O)CNC(=O)[C@H](CCC(=O)O)NC(=O)C(C)(C)NC(=O)[C@@H](N)Cc1ccc(O)cc1)[C@@H](C)O)[C@@H](C)O)[C@@H](C)CC)[C@@H](C)CC)C(C)C)C(=O)N[C@@H](C)C(=O)NCC(=O)NCC(=O)N1CCC[C@H]1C(=O)N[C@@H](CO)C(=O)N[C@@H](CO)C(=O)NCC(=O)N[C@@H](C)C(=O)N1CCC[C@H]1C(=O)N1CCC[C@H]1C(=O)N1CCC[C@H]1C(=O)N[C@@H](CO)C(N)=O; test system = patients with type 2 diabetes; setting = 0.5 mg once weekly x4, day 29, least-squares mean; scale = reference: baseline; endpoint = change in systolic blood pressure; result = 4.88 mmHg
Molecule = TSNQVAVLY; test = AIM; test system = peptide, CD8+ T cells from PBMC, human donors; scale = reference: positive over tested donors; endpoint = frequency of responding donors; result = 25%
Molecule = CNC(=O)[C@H](Cc1c[nH]c2ccccc12)NC(=O)[C@@H](CC(=O)NO)CC(C)C; tested on = Replicase polyprotein 1ab, main protease (rep, Severe acute respiratory syndrome coronavirus 2, UniProt P0DTD1); test = reporter gene (Gaussia luciferase), inhibitor; setting = 20 µM; endpoint = inhibition; result = -0.00861%
